Published values from different studies.
Each line is one published result; not all experiments were run side by side. ± marks the error that the study gave.
Sequence of UniProt P05177 (whole entry, looked up): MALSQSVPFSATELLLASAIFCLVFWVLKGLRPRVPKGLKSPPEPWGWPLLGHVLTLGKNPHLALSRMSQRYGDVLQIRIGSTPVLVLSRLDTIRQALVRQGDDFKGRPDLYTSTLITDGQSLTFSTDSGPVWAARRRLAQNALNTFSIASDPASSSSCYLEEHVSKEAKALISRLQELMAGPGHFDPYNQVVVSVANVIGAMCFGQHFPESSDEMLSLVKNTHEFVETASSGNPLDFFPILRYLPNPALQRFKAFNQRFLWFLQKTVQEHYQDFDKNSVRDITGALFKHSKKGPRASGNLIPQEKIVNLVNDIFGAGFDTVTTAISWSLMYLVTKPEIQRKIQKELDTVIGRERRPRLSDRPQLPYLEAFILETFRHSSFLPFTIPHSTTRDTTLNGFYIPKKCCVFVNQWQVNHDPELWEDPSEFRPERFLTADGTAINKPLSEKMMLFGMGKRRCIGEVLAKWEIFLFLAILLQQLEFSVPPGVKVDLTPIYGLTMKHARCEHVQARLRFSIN
Sequence of UniProt P06276 (whole entry, looked up): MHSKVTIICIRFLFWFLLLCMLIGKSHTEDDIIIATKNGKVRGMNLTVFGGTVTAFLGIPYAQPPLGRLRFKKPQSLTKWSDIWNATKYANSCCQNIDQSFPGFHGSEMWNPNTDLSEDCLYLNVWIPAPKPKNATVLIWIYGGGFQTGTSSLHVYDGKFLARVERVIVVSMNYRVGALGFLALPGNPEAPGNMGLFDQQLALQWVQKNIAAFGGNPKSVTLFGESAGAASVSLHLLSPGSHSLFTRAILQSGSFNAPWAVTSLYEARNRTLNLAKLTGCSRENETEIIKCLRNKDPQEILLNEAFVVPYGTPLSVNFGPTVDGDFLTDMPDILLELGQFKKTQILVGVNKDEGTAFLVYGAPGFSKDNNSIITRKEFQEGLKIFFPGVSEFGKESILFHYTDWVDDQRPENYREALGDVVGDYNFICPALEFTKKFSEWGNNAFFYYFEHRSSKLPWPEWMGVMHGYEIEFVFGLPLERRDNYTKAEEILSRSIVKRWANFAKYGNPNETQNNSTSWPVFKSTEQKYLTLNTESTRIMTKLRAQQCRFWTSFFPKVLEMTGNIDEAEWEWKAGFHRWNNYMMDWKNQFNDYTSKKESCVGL
Sequence of UniProt P41143 (whole entry, looked up): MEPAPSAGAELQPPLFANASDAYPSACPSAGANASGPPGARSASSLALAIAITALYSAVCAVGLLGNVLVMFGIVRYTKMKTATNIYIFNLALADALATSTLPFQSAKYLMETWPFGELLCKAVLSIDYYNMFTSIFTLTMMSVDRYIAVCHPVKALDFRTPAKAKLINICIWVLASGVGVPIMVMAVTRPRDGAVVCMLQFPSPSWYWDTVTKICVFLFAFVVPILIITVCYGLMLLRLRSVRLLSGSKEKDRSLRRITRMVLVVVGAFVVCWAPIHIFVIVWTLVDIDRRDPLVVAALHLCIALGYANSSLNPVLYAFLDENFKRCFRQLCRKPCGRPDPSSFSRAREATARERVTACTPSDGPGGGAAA

| Molecule | tested on | assay | system | conditions | measurement | result |
| --- | --- | --- | --- | --- | --- | --- |
| insulin |  |  | female C57BL/6J mice | dose not given, endogenous, population model, added: glucose 0.35 g/kg iv | volume of distribution | 13 mL |
| deucravacitinib |  | multiple ascending dose | healthy human | oral, all doses pooled | subjects with influenza-like illness | 4.4% |
| Ac-DEVD-CHO | Caspase-7 (CASP7, Homo sapiens, UniProt P55210) | enzyme activity |  |  | Hill slope | -1.28 |
| propranolol | Caco-2 |  |  |  | efflux ratio | 1.2 |
| maraviroc |  |  | human, tissue | oral, 300 mg twice daily, day 7, composite of medians | Cmax | 848 ng/g |
| retrorsine |  |  | human whole blood | 1000 ng/mL, 60 min, 37 °C | blood-to-plasma ratio | 1.08 |
| semaglutide |  | item: fatal outcome | human, safety analysis set | concentration not given, 32 weeks, run-in | participants with adverse events | 0% |
| mitragynine | Cytochrome P450 1A2 (CYP1A2, Homo sapiens, UniProt P05177) | phenacetin O-deethylation, inhibitor | human liver microsomes |  | IC50 | > 45000 nM |
| mitragynine |  |  | human liver S9 |  | CLint | 0.068 mL/min/mg protein |
| phoxim-oxon | Butyrylcholinesterase (Bche, Rattus norvegicus, UniProt Q9JKC1) | inhibitor | rat, postnatal day 1, rat serum |  | IC50 | 2 nM |
| colistimethate |  | dynamic light scattering | water | 25 °C | critical micelle concentration | 3.5 mM |
| SNC80 | Delta-type opioid receptor, with Gi3 (OPRD1, Homo sapiens, UniProt P41143) | Gi3 activation, agonist |  |  | Emax | 116 ± 2% |
| semaglutide |  | GLP-1R CRE luciferase bioassay | C57BL/6 mouse, male, plasma | subcutaneous, 0.4 mg/kg, 3 h, end of OGTT | plasma concentration | 863 nM |
| benzalkonium bromide | Cholinesterase (BCHE, Homo sapiens, UniProt P06276) | enzyme activity, inhibitor, fluorescence |  | concentration not given | inhibition | -37.8 ± 93.5% |
| maraviroc |  |  |  |  | logP | 4.37 |

For quick reference, copied from above:
| Molecule | tested on | assay | system | conditions | measurement | result |
| --- | --- | --- | --- | --- | --- | --- |
| maraviroc |  |  |  |  | logP | 4.37 |
